Measurements of several laboratories.
Each numbered part is a random draw from the data of one study; scales do not carry over between parts. Changes are numbered by the printed parent chain.
Sequence of UniProt P21728 (whole entry, looked up): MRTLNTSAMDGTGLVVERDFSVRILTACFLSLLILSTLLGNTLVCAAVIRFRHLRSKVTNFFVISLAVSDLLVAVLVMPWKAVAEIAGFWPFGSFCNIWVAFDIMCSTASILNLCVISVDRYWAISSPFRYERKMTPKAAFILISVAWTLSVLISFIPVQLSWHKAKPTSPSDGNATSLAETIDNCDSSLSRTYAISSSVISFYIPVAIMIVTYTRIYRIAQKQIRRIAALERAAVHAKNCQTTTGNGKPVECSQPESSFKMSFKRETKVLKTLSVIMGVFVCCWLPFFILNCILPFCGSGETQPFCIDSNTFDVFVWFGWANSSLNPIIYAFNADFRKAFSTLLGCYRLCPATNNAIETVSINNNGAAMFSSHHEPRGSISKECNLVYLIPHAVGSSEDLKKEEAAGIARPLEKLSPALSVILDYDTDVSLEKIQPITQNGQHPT

Study 1 — target: tungstate, free oxyanion; technique: microfluidic competitive inhibition; medium: in vitro, cell-free expressed; concentration: not given; reading: lower = stronger binding
Notes: derived from inhibition constants, unchanged parent 2230 nM
Parent: PafA, mature enzyme, eGFP fusion (Elizabethkingia meningoseptica, UniProt Q9KJX5); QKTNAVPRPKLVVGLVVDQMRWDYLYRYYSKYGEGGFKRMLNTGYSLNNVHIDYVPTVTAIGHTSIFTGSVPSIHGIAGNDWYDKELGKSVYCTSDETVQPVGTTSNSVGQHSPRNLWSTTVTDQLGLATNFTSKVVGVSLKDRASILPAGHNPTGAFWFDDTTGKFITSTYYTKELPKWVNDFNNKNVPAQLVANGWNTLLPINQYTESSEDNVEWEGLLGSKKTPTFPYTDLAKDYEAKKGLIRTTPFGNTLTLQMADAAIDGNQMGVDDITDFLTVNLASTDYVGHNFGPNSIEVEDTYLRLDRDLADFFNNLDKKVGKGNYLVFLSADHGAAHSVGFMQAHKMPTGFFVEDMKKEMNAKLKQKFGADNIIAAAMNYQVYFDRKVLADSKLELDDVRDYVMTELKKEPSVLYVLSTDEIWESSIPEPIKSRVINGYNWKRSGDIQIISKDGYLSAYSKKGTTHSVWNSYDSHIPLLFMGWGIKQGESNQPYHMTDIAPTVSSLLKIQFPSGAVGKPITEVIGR
Substitution | oxyanion analog dissociation constant
V270A | 2.34 µM
N214G | 2.05 µM
D420V | 2.54 µM
K236G | 1.9 µM
I245G | 649 nM
S471G | 2.14 µM
K10V | 2.18 µM
H337V | 4.78 µM

Study 2 — observed: binding; technique: phage display NGS; form: peptide; baseline: input library
Target: UDP-N-acetylglucosamine--peptide N-acetylglucosaminyltransferase 110 kDa subunit (OGT, Homo sapiens, UniProt O15294)
Sequence of UniProt O15294 (whole entry, looked up): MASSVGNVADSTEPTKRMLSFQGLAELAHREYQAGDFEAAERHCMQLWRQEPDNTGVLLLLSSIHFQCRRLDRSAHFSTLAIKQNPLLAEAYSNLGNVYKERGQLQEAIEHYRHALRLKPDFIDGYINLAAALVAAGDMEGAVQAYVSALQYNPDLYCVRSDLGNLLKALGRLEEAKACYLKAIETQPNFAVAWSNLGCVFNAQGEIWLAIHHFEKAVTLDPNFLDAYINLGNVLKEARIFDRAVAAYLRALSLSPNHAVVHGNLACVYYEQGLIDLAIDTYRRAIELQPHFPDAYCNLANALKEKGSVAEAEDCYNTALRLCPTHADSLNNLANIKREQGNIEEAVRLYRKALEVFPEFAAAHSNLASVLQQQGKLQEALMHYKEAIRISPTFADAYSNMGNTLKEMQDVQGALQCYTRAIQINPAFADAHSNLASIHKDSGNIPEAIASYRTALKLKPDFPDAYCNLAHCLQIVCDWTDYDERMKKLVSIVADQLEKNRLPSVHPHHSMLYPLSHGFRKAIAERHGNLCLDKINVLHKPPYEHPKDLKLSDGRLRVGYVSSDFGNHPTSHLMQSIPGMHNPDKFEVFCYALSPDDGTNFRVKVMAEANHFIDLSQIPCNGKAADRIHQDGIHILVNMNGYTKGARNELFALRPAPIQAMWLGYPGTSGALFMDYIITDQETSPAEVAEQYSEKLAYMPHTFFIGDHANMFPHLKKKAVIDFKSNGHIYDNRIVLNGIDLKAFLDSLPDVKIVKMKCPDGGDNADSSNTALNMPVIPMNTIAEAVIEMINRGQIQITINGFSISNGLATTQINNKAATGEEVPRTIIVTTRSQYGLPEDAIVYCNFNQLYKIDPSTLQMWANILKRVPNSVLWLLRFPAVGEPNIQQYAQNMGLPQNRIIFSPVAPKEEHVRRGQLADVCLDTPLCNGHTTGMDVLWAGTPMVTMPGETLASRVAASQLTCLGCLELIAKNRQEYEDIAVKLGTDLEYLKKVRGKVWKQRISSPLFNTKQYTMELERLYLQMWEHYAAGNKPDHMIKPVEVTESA
Molecule | minimum log2 enrichment ratio
SLFLPAYPIEATYR | 4.24
HNHRHHITSAAIAQA | 2.02
YSLHIAQHHDAYTIH | 2.79
SNKQDLMPAYQIQYG | 3.3
WGSSPYRPFYFIDIQ | 1.54
DNKMHARNHQQHPH | 3.08
YPPYAFHQATHHHHK | 3.25
ISVPVFGKYMPFYQI | 3.02

Single results of other studies — concentration: 10 µM
Structure (SMILES) | target | observed | mode | technique | notes | inhibition [%]
COc1ncc(-c2ccc3nccc(-c4ccnnc4)c3c2)cc1NS(=O)(=O)c1ccc(F)cc1F | chymotrypsin | enzyme activity | inhibitor | – | with DTT | 9
Cn1cncc1[C@](O)(COc1ccc(C#N)cc1-c1ccc(OC(F)(F)F)cc1)c1ccc(C#N)cc1 | DRD1 (Homo sapiens, UniProt P21728) | binding | – | radioligand binding | – | 4.35

For quick reference, copied from above (study 1):
Substitution | oxyanion analog dissociation constant
K236G | 1.9 µM
I245G | 649 nM
S471G | 2.14 µM
